Assay results of several laboratories.
Lines come from different studies, so protocols differ. ± gives the spread as reported.

SMILES	method	species	matrix	route	dose	time	tissue uptake
CC(C)[C@H](NC(=O)[C@@H]1CCCN1C(=O)[C@H](CCCNC(=N)N)NC(=O)[C@H](CS)NC(=O)[C@H](Cc1c[nH]c2ccccc12)NC(=O)[C@H](CCCNC(=N)N)NC(=O)[C@@H](Cc1ccccc1)NC(=O)[C@H](Cc1c[nH]cn1)NC(=O)[C@H](CCC(=O)O)NC(=O)[C@H](CS)NC(=O)[C@H](CS)NC(=O)[C@@H]1CC(=O)N[C@@H](CCCNC(=N)N)C(=O)NCC(=O)N[C@@H](CC(=O)O)C(=O)N[C@H](Cc2ccc(O)cc2)C(=O)N1)C(N)=O [technetium-99m labelled]	–	C57 mouse, female, B16/F1 melanoma	skin	intravenous	0.037 MBq	24 h	0.32 ± 0.13 %ID/g
O=C([O-])CN1CCN(CC(=O)[O-])CCN(CC(=O)NCCc2ccc3c(c2)C2C=CCC2C(c2cc4c(cc2Br)OCO4)N3)CCN(CC(=O)[O-])CC1.[111In+3] (stereo not drawn)	–	mouse, Hec50 endometrial tumour	adrenals	–	–	0.5 h post injection	7.11 ± 0.51 %ID/g
O=C(O)C1CN(Cc2ccc(-c3noc(-c4ccc(OCC[18F])c(C(F)(F)F)c4)n3)cc2)C1	–	Sprague-Dawley rat, male, normal	fat	iv	–	120 min	0.059 ± 0.011 %ID/g
CCCC[C@H](NC(=O)CNC(=O)CNC(=O)CN1CCN(CC(=O)O)CCN(CC(=O)O)CCN(CC(=O)O)CC1)C(=O)N[C@H]1CC(=O)NCCCC[C@@H](C(N)=O)NC(=O)[C@H](Cc2c[nH]c3ccccc23)NC(=O)[C@H](CCCNC(=N)N)NC(=O)[C@@H](Cc2ccccc2)NC(=O)[C@H](Cc2c[nH]cn2)NC1=O [copper-64 labelled]	–	C57 mouse B16/F1 melanoma	tumor	–	–	0.5 h	5.61 ± 0.91 %ID/g
C[C@H](CN(C)Cc1ccccc1)NC(=O)c1ccc(-c2noc(C(F)(F)[18F])n2)cc1	PET imaging	female Sprague-Dawley rats	cerebellum	intravenous	–	60 min	0.76 ± 0.18 SUV
CCCC[C@@H]1NC(=O)[C@@H](NC(=O)[C@H](CCC(=O)O)NC(=O)CNC(=O)CN2CCN(CC(=O)O)CCN(CC(=O)O)CCN(CC(=O)O)CC2)CCCCNC(=O)C[C@@H](C(N)=O)NC(=O)[C@H](C(C)C)NC(=O)[C@@H]2CCCN2C(=O)[C@H](CCCNC(=N)N)NC(=O)CNC(=O)[C@H](Cc2c[nH]c3ccccc23)NC(=O)[C@H](CCCNC(=N)N)NC(=O)[C@@H](Cc2ccccc2)NC(=O)[C@H](Cc2c[nH]cn2)NC(=O)[C@H](CCC(=O)O)NC1=O [gallium-67 labelled]	–	C57 mice with B16/F1 melanoma	blood	intravenous	–	24 h	0.15 ± 0.11 %ID/g
CCCC[C@H](NC(=O)CNC(=O)CNC(=O)CN1CCN(CC(=O)O)CCN(CC(=O)O)CC1)C(=O)N[C@H]1CC(=O)NCCCC[C@@H](C(N)=O)NC(=O)[C@H](Cc2c[nH]c3ccccc23)NC(=O)[C@H](CCCNC(=N)N)NC(=O)[C@@H](Cc2ccccc2)NC(=O)[C@H](Cc2c[nH]cn2)NC1=O [copper-64 labelled]	–	female C57 mouse, B16/F1 melanoma	tumor	intravenous	0.037 MBq	2 h	12.4 ± 1.61 %ID/g
CN(C)c1ccc(-c2nc3ccc(OCCCCCN4CCN5CCN(CC4)CC(=O)[O][Al]([18F])[O]C(=O)C5)cc3s2)cc1	–	ICR mouse	pancreas	intravenous	–	10 min	3.16 ± 0.66 %ID/g
CC(C)[C@H](NC(=O)[C@@H]1CCCN1C(=O)[C@H](CCCNC(=N)N)NC(=O)[C@H](CS)NC(=O)[C@H](Cc1c[nH]c2ccccc12)NC(=O)[C@H](CCCNC(=N)N)NC(=O)[C@@H](Cc1ccccc1)NC(=O)[C@H](Cc1c[nH]cn1)NC(=O)[C@H](CCC(=O)O)NC(=O)[C@H](CS)NC(=O)[C@H](CS)NC(=O)CNC(=O)[C@@H]1CC(=O)N[C@@H](CCCNC(=N)N)C(=O)NCC(=O)N[C@@H](CC(=O)O)C(=O)N[C@H](Cc2ccc(O)cc2)C(=O)N1)C(N)=O [technetium-99m labelled]	–	C57 mouse, female, B16/F1 melanoma	muscle	intravenous	0.037 MBq	2 h	0.57 ± 0.29 %ID/g
CCCC[C@H](NC(=O)CNC(=O)CNC(=O)CN1CCN(CC(=O)O)CCN(CC(=O)O)CCN(CC(=O)O)CC1)C(=O)N[C@H]1CC(=O)NCCCC[C@@H](C(N)=O)NC(=O)[C@H](Cc2c[nH]c3ccccc23)NC(=O)[C@H](CCCNC(=N)N)NC(=O)[C@@H](Cc2ccccc2)NC(=O)[C@H](Cc2c[nH]cn2)NC1=O [lead-203 labelled]	–	C57 mouse	bone	intravenous	0.056 MBq	4 h	0.77 ± 0.35 %ID/g
O=C([O-])c1cccc(CN(CCN(Cc2cn(Cc3ccccc3)nn2)Cc2cccc(C(=O)[O-])n2)Cc2cn(Cc3ccccc3)nn2)n1.[64Cu+2]	–	healthy athymic nude mice	liver	intravenous	–	4 h	12.4 %ID/g
CCCC[C@H](NC(=O)CNC(=O)CNC(=O)CN1CCN(CC(=O)O)CCN(CC(=O)O)CC1)C(=O)N[C@H]1CC(=O)NCCCC[C@@H](C(N)=O)NC(=O)[C@H](Cc2c[nH]c3ccccc23)NC(=O)[C@H](CCCNC(=N)N)NC(=O)[C@@H](Cc2ccccc2)NC(=O)[C@H](Cc2c[nH]cn2)NC1=O [gallium-67 labelled]	–	female C57 mice, B16/F1 melanoma	stomach	intravenous	0.037 MBq	4 h	1.45 ± 0.23 %ID/g

Some of these lines once more:
SMILES	method	species	matrix	route	dose	time	tissue uptake
CCCC[C@H](NC(=O)CNC(=O)CNC(=O)CN1CCN(CC(=O)O)CCN(CC(=O)O)CC1)C(=O)N[C@H]1CC(=O)NCCCC[C@@H](C(N)=O)NC(=O)[C@H](Cc2c[nH]c3ccccc23)NC(=O)[C@H](CCCNC(=N)N)NC(=O)[C@@H](Cc2ccccc2)NC(=O)[C@H](Cc2c[nH]cn2)NC1=O [copper-64 labelled]	–	female C57 mouse, B16/F1 melanoma	tumor	intravenous	0.037 MBq	2 h	12.4 ± 1.61 %ID/g
